Experimental data from different studies.
Numbered parts are unrelated; each lists some results of a single study. Changes are numbered by the printed parent chain.

Study 1
Target: Centromere-binding protein 1, full length, N-terminal tag (CBF1, Saccharomyces cerevisiae, UniProt P17106, residues 1-351)
UniProt P17106, sequence (whole entry, looked up): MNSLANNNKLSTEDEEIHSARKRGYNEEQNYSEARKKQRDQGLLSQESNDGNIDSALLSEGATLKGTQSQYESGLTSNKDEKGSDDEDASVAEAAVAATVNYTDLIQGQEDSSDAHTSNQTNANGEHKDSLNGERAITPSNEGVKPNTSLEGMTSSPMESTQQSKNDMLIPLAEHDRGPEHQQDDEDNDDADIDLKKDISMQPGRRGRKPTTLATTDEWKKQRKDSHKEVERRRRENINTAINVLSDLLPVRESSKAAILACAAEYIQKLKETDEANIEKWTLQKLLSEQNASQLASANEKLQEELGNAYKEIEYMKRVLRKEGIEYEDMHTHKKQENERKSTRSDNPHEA
Method: protein-binding microarray
Molecule type: double-stranded DNA, one strand shown
Medium: in vitro
Concentration: 0.8 µM
Notes: whole 60-bp probe, no competitor
Direction: higher = stronger binding
Shared flanks, not repeated: … GTCTTGATTCGCTTGACGCTGCTG
| Sequence | fluorescence intensity [a.u.] |
| --- | --- |
| CTATATCTCAAATTTCACCTGTTTCTCATTTTTTTC | 523 |
| GAATTCACTGTACATCACGGGTCCGCCTGGCACTAG | 907 |
| CTATACAAAAGAATCCTCGTGTGTTTGTGTGTGTTC | 567 |
| GAATAGTTTCTTTCGCATGTGGTCGCTGTATGATAG | 702 |
| GAAGTAGTGCAGCAATGCGTGCGTGTGCAAGCTTAG | 507 |
| CTATCGTGCCGTCATCACCATCGATTTGAATATTTC | 549 |
| CTAGCATTGCACCTTGTCGTGATGTATTCTAAGTTC | 600 |
| CTAAATAATTAGTATCCCGTGATTTTGAGCTGTTTC | 1830 |
| GAAATATTGCGAAGTGACGTCAAGAATCGACTTTAG | 540 |
| GAATTGATCACAATGCACGGAGACGCCCATTAATAG | 553 |
| CTAGATTCTTATAATCACGTATGAACATTCTTATTC | 577 |
| GAACTGAGACTTGATCACGATAAATACCTACCATAG | 640 |
| CTAATCGAGTGAAGTATCGTGACTTGTACATTTTTC | 1380 |
| GAATCTTCCGTTAGCAGCATGATCTTGTGTAGATAG | 557 |
| CTATCTTGTGGTTGTGGTGGTGCGTGTGAGCAGTTC | 655 |
| GAAGGGTGTGGGTGTGGTGTGGGTGTGTGGGTGTAG | 526 |
| TGTACGAAGCTATTTCGTGCTCCTATAGTAGTTAGG | 525 |
| CTATCCCCCAGACACCACCTCTTTTGTTCACTTTTC | 512 |
| CTATGCTCTCTGTATCACGGGTCTACTAGCAGGTTC | 1140 |
| CTAATATGTCCTTGCTAGCTGATGTCTCGAAATTTC | 523 |

Study 2
Target: CCNE1, cyclin fold, Cln2 fusion (human)
Method: yeast growth competition, sequencing
Medium: yeast
Notes: strong parent motif
Baseline: not given
Direction: higher = stronger binding
Starting sequence: BRCA2 docking peptide (human); PSIKRNLLNEFDR; partner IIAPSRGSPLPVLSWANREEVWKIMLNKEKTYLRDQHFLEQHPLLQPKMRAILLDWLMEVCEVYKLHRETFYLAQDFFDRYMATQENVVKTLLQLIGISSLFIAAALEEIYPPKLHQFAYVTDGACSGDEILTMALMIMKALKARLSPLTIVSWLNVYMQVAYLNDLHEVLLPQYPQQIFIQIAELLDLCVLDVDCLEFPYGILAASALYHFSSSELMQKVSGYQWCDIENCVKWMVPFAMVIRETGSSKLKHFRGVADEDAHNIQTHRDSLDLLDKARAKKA
| Substitution | normalised enrichment score |
| --- | --- |
| L7Y | -0.118 |
| R13K | 0.929 |
| N9W | 2.9 |
| K4F | 1.09 |
| D12H | 0.515 |
| N6Q | 0.31 |
| D12Y | 1.35 |
| N6W | 1.07 |
| P1A | 1.32 |
| I3S | 1.27 |
| K4N | 0.513 |
| S2C | 2.41 |
| S2H | 1.85 |
| R5M | 0.561 |
| N9S | 1.94 |
| E10L | 0.814 |
| L8D | 0.31 |
| K4D | -0.201 |
| K4T | 0.192 |
| L8Q | -0.0864 |
| S2T | 1.51 |
| L8N | 0.358 |
| D12G | 1.15 |
| N6M | 0.419 |
| N6I | 0.147 |

Study 3
Target: Interferon regulatory factor 3, full length, phosphomimetic (IRF3, Homo sapiens, UniProt Q14653, residues 1-427, S386D/S396D/S398D/S402D/T404D/S405D)
Method: protein-binding microarray
Molecule type: double-stranded DNA, one strand shown
Medium: in vitro
Concentration: 2540 nM top
Notes: 60-bp whole probe
With: salmon DNA 0.4 mg/ml
Baseline: random background probes
Direction: higher = stronger binding
Shared flanks, not repeated: GCCTAGCAC … GTCTTGATTCGCTTGACGCTGCTG
Target sequence (chain): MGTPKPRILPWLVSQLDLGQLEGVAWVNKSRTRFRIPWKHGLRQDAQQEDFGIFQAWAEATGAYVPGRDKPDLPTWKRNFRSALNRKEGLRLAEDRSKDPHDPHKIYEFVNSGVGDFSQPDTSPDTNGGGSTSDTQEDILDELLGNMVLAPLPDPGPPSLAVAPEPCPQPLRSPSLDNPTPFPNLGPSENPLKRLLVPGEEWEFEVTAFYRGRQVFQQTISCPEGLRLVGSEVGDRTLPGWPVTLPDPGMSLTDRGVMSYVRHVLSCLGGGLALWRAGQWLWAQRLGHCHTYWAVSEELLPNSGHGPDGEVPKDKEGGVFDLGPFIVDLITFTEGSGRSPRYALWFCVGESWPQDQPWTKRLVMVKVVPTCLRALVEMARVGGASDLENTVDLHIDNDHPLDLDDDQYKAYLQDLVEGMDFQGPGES
| Sequence | fitted relative affinity |
| --- | --- |
| GGCGGTTTCGGGTATCGGGACGTGCTA | 4.56 z-score |
| ACCCGAGTCCCTATCTCCTCGTGCTAG | 0.545 z-score |
| GACGGTTTCGGTTATCGGGACGTGCTA | 7.95 z-score |
| TTAGGTCACCTTCTCCTTTAGTGCTAG | 2.41 z-score |
| AGCACTCTTCTTTTTTTTCTGTGCTAG | 0.921 z-score |
| TTAAGTCTCGGTATCGGTTAGTGCTAG | 2.85 z-score |
| ATATTGATGGCTCTCTGGACGTGCTAG | -0.258 z-score |
| TCATTTTTTTTTTCATCACTGTGCTAG | 1.56 z-score |
| GACGAACTGAGTCTCGAGCCGTGCTAG | -0.398 z-score |
| GACGATCTTAGTCTCGAGACGTGCTAG | 0.522 z-score |
| ACAAGTTTCTCCTTTCCAAAGTGCTAG | 3.86 z-score |
| GACGATTTTGGGTATCGAGACGTGCTA | 0.472 z-score |
| GACGGTATCGGTCTCGGCACGTGCTAG | 4.42 z-score |
| TCAAAAATAGAAACTCGTACTGTGCTA | -0.0336 z-score |
| TATCTTATCCTATCAGTTTAGTGCTAG | 2.18 z-score |
| TTAGGTACCGACTTTCGGTTAGTGCTA | 2.73 z-score |
| TTAGATATCAATTTCGATTAGTGCTAG | 2.19 z-score |
| TTAGGTCTCGGTCTCGGTCAGTGCTAG | 1.04 z-score |
| GACGGTTTCGGTCTCGGGAAGTGCTAG | 8.71 z-score |
| GCCGATATCGGGTATCGAGACGTGCTA | 0.796 z-score |
| TCAGTTTTACAGGTTCTCACTGTGCTA | 1.05 z-score |
| GACGGACTGGTGTTTCGGGACGTGCTA | 0.464 z-score |
| TTTGGTGTCTTTTGTGGAAACGTGCTA | 0.239 z-score |
| TTAAGTCTCCTTATCCTTTAGTGCTAG | 3.53 z-score |
| TTAGGTATCGGGTTCGGTTAGTGCTAG | 2.18 z-score |

Study 4
Target: ABI1, truncated, D143A, DHFR fusion (Arabidopsis thaliana)
Method: DHFR PCA, deep sequencing
Medium: yeast
Notes: methotrexate growth selection, single substitutions
With: (+)-ABA 1.4 µM
Baseline: wild-type fitted maximum
Direction: higher = stronger binding
Starting sequence: PYL1, truncated, DHFR fusion (Arabidopsis thaliana); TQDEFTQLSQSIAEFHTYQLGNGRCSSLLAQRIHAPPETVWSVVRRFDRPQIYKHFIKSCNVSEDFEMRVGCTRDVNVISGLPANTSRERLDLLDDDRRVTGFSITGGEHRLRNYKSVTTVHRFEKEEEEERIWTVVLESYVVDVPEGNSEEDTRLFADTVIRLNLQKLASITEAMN; partner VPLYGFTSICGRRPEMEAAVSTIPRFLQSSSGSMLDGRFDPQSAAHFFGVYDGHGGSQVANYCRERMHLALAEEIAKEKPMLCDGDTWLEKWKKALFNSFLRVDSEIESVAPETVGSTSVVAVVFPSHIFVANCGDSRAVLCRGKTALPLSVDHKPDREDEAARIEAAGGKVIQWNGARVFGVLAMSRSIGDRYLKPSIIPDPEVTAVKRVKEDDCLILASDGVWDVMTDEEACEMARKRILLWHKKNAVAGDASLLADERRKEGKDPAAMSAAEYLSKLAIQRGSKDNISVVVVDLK
| Substitution | relative binding score [%] |
| --- | --- |
| H122K | 7.3 |
| F47I | 1.85 |
| K116M | 3.92 |
| N165R | 7.54 |
| L91C | 8 |
| I133D | 80.9 |
| V136S | 3.26 |
| C60H | -5.85 |
| H122R | 0.326 |
| S150D | 42.5 |
| N177P | 42.1 |
| L8T | 15.4 |
| L93K | 23.9 |
| W134K | 12.2 |
| Q2G | 38.1 |
| H122F | 3.32 |
| E139R | 7.5 |
| L8D | -22.9 |
| E130N | 56.6 |
| S11A | 76.2 |
| R99G | 8.13 |

Study 5
Target: RNA binding protein fox-1 homolog 2, RRM domain, GST-SBP tag (RBFOX2, Homo sapiens, UniProt O43251-10, residues 100-194)
Method: RNA Bind-n-Seq
Molecule type: RNA
Medium: in vitro
Concentration: 365 nM
Notes: natural RNA segment, single round, ends assumed
Baseline: no-protein control
Direction: higher = stronger binding
Shared flanks, not repeated: GGGAGUUCUACAGUCCGACGAUC … UGGAAUUCUCGGGUGCCAA
Residues (chain): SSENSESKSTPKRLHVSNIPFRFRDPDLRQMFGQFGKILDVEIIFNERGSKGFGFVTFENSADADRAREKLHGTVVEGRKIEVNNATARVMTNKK
| Sequence | RBNS enrichment (R) |
| --- | --- |
| UGACCUUCAAGAAAAUGGAAAUAUUUGUAAAUUCUUGGUAAUGCCUCCGUUGUAAUUAAUGAAACUAUUUUCUUUAAAGUGUUUCUAUGUUAAAAUAGCAUACUGUGUAU | 0.552 |
| AAGCAAGUCGGACCUCUCAGAACUUAGAGUGUGGGAACAGUUUUUUUUUUUUUUUUAAAAAAAACAAAAAACAAACGACCAUUUCUCUAAGCCAAGUUUCUUUUAGAGAC | 0.512 |
| UAAAGAGGUACAAUAAGCAGCUAUUCACAGACACCUGGGUGGUUCCUAUACCUGCCCAGGACAUCUUAAUAACCCCAGGGCUGGGGACUCCAUGGCCACACUCCUGUGAA | 0.313 |
| GCAGGAUGCAGCUCUGGCCCCCGAGUUCCUGGCCGUGCUGAGUACAGCGUGUCCCCAGACGCAGACCUCAAGGGCCUUCUCCAGCGGCUGGAGACAGCCUGAAAAGCAAA | 0.381 |
| CUGUUAAGCAAGUGUGAUCUGCAACAUUUUUUCAACUUUUGCUAGCACUGUAUACUAUUGCAUUCUUAGGCUACUGUGAGGUCUAUGUUUCUUGUACCAGAAAUUGUCCU | 0.883 |
| GUCGGAGGCAUCAUGGAAAGACUGGGACAGCCCAGGAAACAAGGGGUCUGAGGAUGCAUUCGAGAUGGCAGAUUCCCACUGCCGCUGCCCGCUCAGCCCAGCUGUUGGGA | 1.91 |
| GAAGACUCAUGUUUAUGUCUGGAAUAAGUUCUGUUUGUGCUGACAGGUGGCCUAGGUCCUGGAGAUGAGCACCCUCUCUCUGGCCUUUAGGGAGUCCCCUCUUAGGACAG | 0.599 |
| UGUUAGAUUCAACACUGCGCUAAAGCGGGGAUGUUCCAUUGAAUAAAAGAGCAGUGUGGUUUUCUGGUCUGCUUCUUUAUUUUCUUUUUAAUGCCUGCCCCGCCCGGUUU | 0.353 |
| CCCCAACAUCCAGAGGCCAGAAGAAUUGGCAGCUGCCUACUUAAGGAAGCUUGGGUUUGAAGCCUGCCCAGACUGGGCUGGGAGUGUUCUCAGAGUCUCAACACAGGAAC | 0.269 |
| ACUAAGGCCUCUUGAUUCUUUCCCCUUGAACACUAUGAGCACUGACAAAUCAUGGUAGAGGUGCCCACCAACCAGUUUGCACAGUGGAGGCCACCUGACAUGCAUUAGCC | 0.645 |
| AGUCUUAAGGUGACUAAGAUUCACCUCAGCAGAGCCAAUCUUUUUGGGGGGAUGGGAGGGAGACUUAUAUUAGCAGGCUGCUCAUUGUACCACAGGAUACAUAUAGGUAG | 0.476 |
| CCUGUGAAGACCCCCAGGCUUUGUCAUAGGAGGUCGUUCAGCUUCCCCAAAGUCAGAGGUGAUUUGAUUUGGGGAAGACUGAAUAUUCACACCUAAGUCGUGAGCAUAUC | 0.224 |

Repeated from above (study 3):
| Sequence | fitted relative affinity |
| --- | --- |
| GACGGTTTCGGTCTCGGGAAGTGCTAG | 8.71 z-score |
| GACGGACTGGTGTTTCGGGACGTGCTA | 0.464 z-score |
| TTAGATATCAATTTCGATTAGTGCTAG | 2.19 z-score |
| TATCTTATCCTATCAGTTTAGTGCTAG | 2.18 z-score |
| TCATTTTTTTTTTCATCACTGTGCTAG | 1.56 z-score |
| GACGATCTTAGTCTCGAGACGTGCTAG | 0.522 z-score |
| TCAAAAATAGAAACTCGTACTGTGCTA | -0.0336 z-score |
| GCCGATATCGGGTATCGAGACGTGCTA | 0.796 z-score |
| TTAGGTCTCGGTCTCGGTCAGTGCTAG | 1.04 z-score |
| GACGGTTTCGGTTATCGGGACGTGCTA | 7.95 z-score |
| TTAGGTCACCTTCTCCTTTAGTGCTAG | 2.41 z-score |
| ACCCGAGTCCCTATCTCCTCGTGCTAG | 0.545 z-score |
